# Published values gathered from unrelated publications.
# Every numbered part comes from another study and shows a few of its results, in no order.

# Study 1 — observed: enzyme activity; action: inhibitor; concentration: 20 µM
# Target: Replicase polyprotein 1ab, main protease (rep, Severe acute respiratory syndrome coronavirus 2, UniProt P0DTD1)
Structure (SMILES),inhibition [%]
Nc1nnc(Sc2ncc([N+](=O)[O-])s2)s1,25.9
COc1ccnc(C[S+]([O-])c2nc3ccc(OC(F)F)cc3[nH]2)c1OC (stereo not drawn),-9.16
CC(C)(C)OC(=O)NCCc1nnc(S(=O)(=O)Cc2ccc(Cl)cc2Cl)o1,94.9

# Study 2 — method: RNA Bind-n-Seq; form: RNA; matrix: in vitro; concentration: 365 nM; relative to: no-protein control; direction: higher = stronger binding
# Target: RNA binding protein fox-1 homolog 2, RRM domain, GST-SBP tag (RBFOX2, Homo sapiens, UniProt O43251-10, residues 100-194)
# Notes: natural RNA segment, single round, ends assumed
# Constant ends, left off below: GGGAGUUCUACAGUCCGACGAUC … UGGAAUUCUCGGGUGCCAA
# Residues (chain): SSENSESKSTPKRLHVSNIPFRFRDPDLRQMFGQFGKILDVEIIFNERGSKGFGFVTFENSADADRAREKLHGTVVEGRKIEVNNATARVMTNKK
Oligonucleotide,RBNS enrichment (R)
AUUUGGUUCAUAUCUUGUGUAUUGGUGCAUAAAAGAAAAAAAAACAGUGUUUUUACGUUUUCAGUUUAAAGGACAAAGGGCGUGCUCUCUCAGUUUGCUGUAAGAUUGUA,0.384
CUCUGUUUUGCUGGGUCUGUGGAGCCCACUUGAGCCCAGCAGUUAACUCCCCUGGCACUCAGCUCUGCCUCUAGUUCAGCCGCCCAGCCACUGAGAGUCAGGGCAUGGUG,0.307
CAAAUUGUCCUACUGACGUUGAAAGCAAACCUUUGUUCAUUCCCAGGGCACUAGAAUGAUCUUUAGCCUUGCUUGGAUUGAACUAGGAGAUCUUGACUCUGAGGAGAGCC,0.64
GCUGUUAGGGCAGGAAGGGGCAAAAGGAAGACUUGGGUAGUAAUCUGGGGGUUCAGAUGGGUAGCACUAAGCCAGCUGGCCUAAAGAUGCAAUAAGUUCCUAGGUAGUCU,0.552
UCAUACCUGGGUGGAGAGAGGGAGACAAAUAGCCAUAAACUUCAUCCUGGAGAACAAGUUACCAUGCAAGGAGUUGACAUCAGUUGUUAAGUGAGGCCCAUUCUUGUUUU,0.251
AUUUGGAGUAUCUGGUACUAGCUAAGAAAUAAUUCUAUAAUUGAGUUUUGUACUCACCAUAUAUGGAUCAUUCCUCAUGUAUAAUGUGCCCCAAAUGCAGCUUCAUUUUC,0.25
UUACUUUCUCUUUGGAGGGCGCUGGGACAUACAUCUCUCAAUCCAGCUUCCUCCGCAUCCUCCCAUCUUGCCCCAUUUCUGCCACGUCAGACACUUCCUGAGAGUCUCAC,0.533
CCCUCAGCAGCCGAUGCAGAGGAUGAAGAGGAUUAUGACUCCUAGCGCCCUGUGCCCCUGUACCCCAGCCAUGCUCUCUUCUAGUUAGUAUUAAUUGCUUUGGGGAGAGG,0.249

# Study 3 — cell line: HEK-293T/ACE2; concentration: 10 µM; time: 16 h; relative to: vehicle
Structure (SMILES),viability [%]
O=S(=O)(O)CCS,97.8
CNCC[C@@H](Oc1ccccc1C)c1ccccc1,99.2
C[C@H](CS)C(=O)N1CCC[C@H]1C(=O)O,99.1
CCS(=O)(=O)CCn1c([N+](=O)[O-])cnc1C,101
CO/N=C(\C(=O)N[C@@H]1C(=O)N2C(C(=O)OCOC(=O)C(C)(C)C)=C(/C=C\c3scnc3C)CS[C@H]12)c1csc(N)n1,98.2

# Study 4 — method: competition protein-binding microarray; form: double-stranded DNA, one strand shown; matrix: in vitro; concentration: 2 µM; added: Cbf1 competitor, 0.05 µM; direction: higher = stronger binding; constant ends, left off below: … GTCTTGATTCGCTTGACGCTGCTG
# Target: Phosphate system positive regulatory protein PHO4, full length, GST-tagged (PHO4, Saccharomyces cerevisiae, UniProt P07270, residues 1-312)
# Notes: whole 60-bp probe, lowest competitor level
# Target sequence (chain): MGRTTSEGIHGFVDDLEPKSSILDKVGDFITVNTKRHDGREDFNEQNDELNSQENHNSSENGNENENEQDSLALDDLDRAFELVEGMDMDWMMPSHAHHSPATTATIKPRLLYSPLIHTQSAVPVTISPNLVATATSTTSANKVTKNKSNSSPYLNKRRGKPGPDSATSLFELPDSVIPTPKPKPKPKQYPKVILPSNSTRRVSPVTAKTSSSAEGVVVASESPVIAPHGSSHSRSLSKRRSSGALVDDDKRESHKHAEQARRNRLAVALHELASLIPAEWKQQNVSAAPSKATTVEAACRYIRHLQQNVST
Oligonucleotide,fluorescence intensity [a.u.]
CTAACGAAGGTTTGTCACGTGACTTACAAGCCAAGT,13900
AAACCATTCAGGTCTTGCGTGCCGAGAATTTTTTTT,6330
AGCCACATCAACTGTCACATGTATGGAAAACTCGCA,7940
AAAGCGGTAATTTGCTGAGTGGGTGCAGATATCTAT,4040
AGCTCTCCATTATTTTGAAGTTTTAGACCCTATAAT,2560
TGCGCAACAACTTGCGTGGTGGGTGTATGTCTAGAA,6680
GTCTTGTCTCATTGCGAAGTGGGTGTCCCCACTTCA,4100
CTTCTGTAAATTTGTCACGTTACTTGACGCGCCCCG,8560

# Study 5 — observed: enzyme activity; action: inhibitor; concentration: 20 µM
# Target: Replicase polyprotein 1ab, polymerase (rep, Severe acute respiratory syndrome coronavirus 2, UniProt P0DTD1)
SMILES,inhibition
Nc1ccc(C(=O)OCC(O)CO)cc1 (stereo not drawn),1.72%
C#C[C@]1(O)CC[C@H]2[C@@H]3CCC4=CC(=NO)CC[C@@H]4[C@H]3CC[C@@]21CC (mixture of isomers),5.15%
NCCc1c[nH]cn1,12.2%
COc1ccc(CN(C(=O)[C@@H](N)Cc2c(C)cc(C(N)=O)cc2C)[C@@H](C)c2ncc(-c3ccccc3)[nH]2)cc1C(=O)O,-0.38%
CC(C)(C)n1nc(-c2cccc3ccccc23)c2c(N)ncnc21,-3.1%
O=C(OCCN1CCOCC1)C1(c2ccccc2)CCCCC1,0.65%
COc1ccc(C(=O)/C(Br)=C\C(=O)O)cc1,3.14%
Nc1nccc2c1ncn2[C@@H]1O[C@H](CO)[C@@H](O)[C@H]1O,-2.33%
Cc1ccc2c(=O)c3cccc(CC(=O)O)c3oc2c1C,9.3%
CC(CN1c2ccccc2Sc2ccccc21)N(C)C (stereo not drawn),14%
C[n+]1ccccc1C=NO,-1.78%
C[C@@H](NCCc1ccc(O)cc1)[C@@H](O)c1ccc(O)cc1 (racemic),11.6%
N#C[C@@H]1C[C@@H]2C[C@@H]2N1C(=O)[C@@H](N)C12CC3CC(CC(O)(C3)C1)C2,1.26%
Nc1ccn([C@@H]2O[C@H](CO)[C@@H](O)[C@@H]2O)c(=O)n1,5.36%
Cc1nc2c(OCc3ccccc3)cccn2c1CC#N,-2.75%
COc1ccc(NS(=O)(=O)c2ccc(N)cc2)nn1,36.4%
COc1ccc(O)c(C(C)(C)C)c1,2.47%
CN1CCN2c3c(cccc31)[C@@H]1CN(CCCC(=O)c3ccc(F)cc3)CC[C@@H]12,1.58%
Cn1nnnc1SCC1=C(C(=O)O)N2C(=O)[C@@H](NC(=O)[C@H](OC=O)c3ccccc3)[C@H]2SC1,19.4%
CCCCOc1cc(C(=O)OCCN(CC)CC)ccc1N,-6.16%
C#Cc1cccc(Nc2ncnc3cc4c(cc23)OCCOCCOCCO4)c1,3.51%
Brc1ccc(NC2C3CC4CC(C3)CC2C4)cc1 (stereo not drawn),-2.15%
CC(C)[C@@H](CN1CC[C@@](C)(c2cccc(O)c2)[C@@H](C)C1)NC(=O)[C@H]1Cc2ccc(O)cc2CN1,-0.52%
CC[N+](CC)(CC(=O)Nc1c(C)cccc1C)Cc1ccccc1,-4.1%
CCCN1CCCC[C@H]1C(=O)Nc1c(C)cccc1C,-4.09%

# Study 6 — method: protein-binding microarray; form: double-stranded DNA, one strand shown; matrix: in vitro; concentration: 2540 nM top; notes: 60-bp whole probe; added: salmon DNA 0.4 mg/ml; relative to: random background probes; direction: higher = stronger binding; constant ends, left off below: GCCTAGCAC … GTCTTGATTCGCTTGACGCTGCTG
# Target: Interferon regulatory factor 3, full length, phosphomimetic (IRF3, Homo sapiens, UniProt Q14653, residues 1-427, S386D/S396D/S398D/S402D/T404D/S405D)
# Construct (chain): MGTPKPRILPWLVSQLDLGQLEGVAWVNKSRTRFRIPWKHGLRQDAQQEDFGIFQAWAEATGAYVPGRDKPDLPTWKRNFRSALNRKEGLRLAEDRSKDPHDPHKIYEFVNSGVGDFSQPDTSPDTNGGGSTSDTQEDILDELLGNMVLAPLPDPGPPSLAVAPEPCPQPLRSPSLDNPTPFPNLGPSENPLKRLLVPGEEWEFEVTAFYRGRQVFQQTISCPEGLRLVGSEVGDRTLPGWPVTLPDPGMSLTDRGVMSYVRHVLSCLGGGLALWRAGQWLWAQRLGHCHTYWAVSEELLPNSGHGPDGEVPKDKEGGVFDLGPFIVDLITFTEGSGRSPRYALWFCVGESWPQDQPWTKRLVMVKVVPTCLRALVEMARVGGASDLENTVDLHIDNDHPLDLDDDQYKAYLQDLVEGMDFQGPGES
Oligonucleotide,fitted relative affinity [z-score]
GTAGATTTCAGTTTCGATTAGTGCTAG,6.1
TTAGGTTTCGTTTCCGGTTAGTGCTAG,8.88
GACGCTATCAGTATCGAGACGTGCTAG,1.17
GACTGTTTCGGACTGGGGACGTGCTAG,3.74
TCATTTCTACGTCTGATACTGTGCTAG,1.93
TCTAATCTCACTCTGTCCCTGTGCTAG,0.411
TCATATGTACTCTCTCCAACTGTGCTA,0.374
ACTAGTTTTCATTTTCTGAAGTGCTAG,5.18

# For quick reference, copied from above (study 4):
Oligonucleotide,fluorescence intensity [a.u.]
CTAACGAAGGTTTGTCACGTGACTTACAAGCCAAGT,13900
AAACCATTCAGGTCTTGCGTGCCGAGAATTTTTTTT,6330
AGCCACATCAACTGTCACATGTATGGAAAACTCGCA,7940
AAAGCGGTAATTTGCTGAGTGGGTGCAGATATCTAT,4040
AGCTCTCCATTATTTTGAAGTTTTAGACCCTATAAT,2560
TGCGCAACAACTTGCGTGGTGGGTGTATGTCTAGAA,6680
